Measured values pooled from the literature.
Each numbered part is a random draw from the data of one study; scales do not carry over between parts.

Series 1
Target: Phosphate system positive regulatory protein PHO4, full length, GST-tagged (PHO4, Saccharomyces cerevisiae, UniProt P07270, residues 1-312)
Technique: competition protein-binding microarray
Form: double-stranded DNA, one strand shown
Matrix: in vitro
Tested at: 2 µM
Setting: whole 60-bp probe, lowest competitor level
Together with: Cbf1 competitor, 0.05 µM
Reading: higher = stronger binding
Measurement: fluorescence intensity
All sequences stand within: … GTCTTGATTCGCTTGACGCTGCTG
Target sequence (chain): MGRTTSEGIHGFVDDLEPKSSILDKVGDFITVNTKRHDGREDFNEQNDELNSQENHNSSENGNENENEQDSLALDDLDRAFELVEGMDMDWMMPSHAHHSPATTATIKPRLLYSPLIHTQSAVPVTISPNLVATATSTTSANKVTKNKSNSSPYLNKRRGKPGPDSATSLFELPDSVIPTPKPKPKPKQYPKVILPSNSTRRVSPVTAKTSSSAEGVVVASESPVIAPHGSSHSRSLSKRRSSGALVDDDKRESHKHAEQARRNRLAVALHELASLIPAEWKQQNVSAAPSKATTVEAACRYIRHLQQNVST
CTATTTTTATGAATTCCGCGGGATTCCTCTATATCT: 3780 a.u.
TTCCTAAAGGAGCCCGGCGTGCCAGCCATCAGAATT: 6960 a.u.
AACAACCGCCTCGACCACGCACCAAAGAGCTGTTAA: 6980 a.u.
GAATGGAGTAAAGGCAGCGTGGGTACCCTGTGGAAA: 8120 a.u.
AAATTACTAAGTTTTCACGTGGCGTACCCCGTATGA: 14100 a.u.
CCCAGAGATATACCACACATGAGACTGAAAAAAGCA: 6540 a.u.
AGAAATGCCATTTTGCACGTGACGAAACAAATTGTG: 15500 a.u.
CTTTCCCGATCTTTTCACGTGGAGTTAGCACATTTG: 12700 a.u.
AAAGCGGTAATTTGTAAGGTGGGTGCAGATATCTAT: 4090 a.u.
AACCGGTCCCTTCTGTGCGTGGTCGGACCTGCTACA: 6280 a.u.
TCAGCTTAGCACAGACACGTTGTGGTCTGTAGGTCA: 11900 a.u.
AAGTTCATATCCTAAAACGTGTTGACAACACTTCGG: 13000 a.u.
CTTCTCGCGGTGGTGCCCGTGGTTACTCCAGAGGTG: 9010 a.u.
CCAAAAACCCTACGGCATGTGGGATTGGGACACCTT: 9530 a.u.
TGTTCCATTCAATGAAACATGTCAATTCTCTGAGTG: 5360 a.u.
TGCCAAGCGTGGAGGAACGTGTGAATTCCCTAACTA: 12300 a.u.
CTTCTGTAAATTTGCAGGGTGGGTGGACGCGCCCCG: 4540 a.u.
CAATTTCATATTCACCACGTGCCGAACTTTGGGATG: 18900 a.u.
TGCGCAACAACTTGAGAAGTGGGTGTATGTCTAGAA: 4430 a.u.
GACGATGATAAACAGCACGATGTTTCCCCCGGCGGC: 9270 a.u.
CATCCCATTGCAAGACCCACGTGAAGGAGCGTCTTC: 16300 a.u.
TTAAGTCTATACCTTCACGTGACTCGCTAGTACCCG: 10900 a.u.
CAACTTTCTTAGATATGCGTGCCGAAAGGCGACCCA: 7090 a.u.
TTGGGATATTAGCGTCACAATGTTTTAACTATTTGG: 3890 a.u.
CATACCCAACCTTGTCTGGTGGGTGAAGATATTTGT: 3510 a.u.

Series 2
Target: Interferon regulatory factor 3, full length, phosphomimetic (IRF3, Homo sapiens, UniProt Q14653, residues 1-427, S386D/S396D/S398D/S402D/T404D/S405D)
Technique: protein-binding microarray
Form: double-stranded DNA, one strand shown
Matrix: in vitro
Tested at: 2540 nM top
Setting: 60-bp whole probe
Together with: salmon DNA 0.4 mg/ml
Relative to: random background probes
Reading: higher = stronger binding
Measurement: fitted relative affinity
All sequences stand within: GCCTAGCAC … GTCTTGATTCGCTTGACGCTGCTG
Residues (chain): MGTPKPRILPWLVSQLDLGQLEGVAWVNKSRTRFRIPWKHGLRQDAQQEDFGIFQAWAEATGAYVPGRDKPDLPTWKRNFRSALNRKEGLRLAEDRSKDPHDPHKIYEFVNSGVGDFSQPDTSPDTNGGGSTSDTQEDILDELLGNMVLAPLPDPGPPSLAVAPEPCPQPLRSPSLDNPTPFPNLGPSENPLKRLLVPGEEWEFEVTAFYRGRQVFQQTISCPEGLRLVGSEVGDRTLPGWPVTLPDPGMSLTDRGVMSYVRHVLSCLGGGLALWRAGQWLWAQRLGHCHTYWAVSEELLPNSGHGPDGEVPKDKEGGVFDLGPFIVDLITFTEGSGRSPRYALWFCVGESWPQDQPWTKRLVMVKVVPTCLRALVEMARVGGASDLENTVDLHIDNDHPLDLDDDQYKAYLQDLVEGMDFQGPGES
TCAAATTTCTTTCTAATACTGTGCTAG: 1.76 z-score
GACGAACTGAGATTGGAGACGTGCTAG: -0.107 z-score
TCATCCATGCTCTGTCGCACTGTGCTA: -0.0323 z-score
GACGATCTCAGTCTCGAGAGGTGCTAG: 0.694 z-score
TTCACTTTCCAAAGCGTGAGGTGCTAG: 4.47 z-score
TTAGGACTCGACACTGGGTTAGTGCTA: -0.656 z-score
TTAGGTTTCTGACTGGGTTAGTGCTAG: 1.76 z-score
GACGGTTTCGATATCGGGACGTGCTAG: 6.44 z-score
AACTTTTTTTTTTCCCTGAAGTGCTAG: 1.57 z-score
TTAGATTTCGGGACTGGAATAGTGCTA: 1.64 z-score
TTAGGTATCGGGACTGGGTCAGTGCTA: 1.19 z-score
TCATTTTACTTTCTATCACTGTGCTAG: 3.88 z-score
TTCATTTTGTGTCTGGGCATGTGCTAG: 0.611 z-score
AAGAATCAGGGGTTTTATCCGTGCTAG: -0.675 z-score
TCAGGTATCGGGTATCGGTTAGTGCTA: 2.37 z-score
GACGAACTGAGACTGGAGAGGTGCTAG: -0.453 z-score
GACGGTATCGGTTTAGGGACGTGCTAG: 5.27 z-score
TTATGTCTCGGACTGGGTTAGTGCTAG: -0.179 z-score
TTCGGTCTCCTTCTCCTTTAGTGCTAG: 4.61 z-score
TTGGATATCGGGACTGGATTAGTGCTA: -0.259 z-score
TCACTTTTATTTTCAGTACTGTGCTAG: 3.24 z-score
TTAGGACAGCTTATCCTTTAGTGCTAG: -0.0911 z-score
TTAGGTTTCCTTTGCCTTTAGTGCTAG: 4.97 z-score
TTAGGTCTCGGTCGCGGTTAGTGCTAG: -0.289 z-score
GAGGAACTGGGGTTTCGAGACGTGCTA: -0.066 z-score

Series 3
Target: PABPC1L2, full length, GST fusion (mouse, UniProt A0ABA7IW68)
Technique: RNAcompete
Form: RNA
Matrix: in vitro
Tested at: 20 nM
Setting: 7-mer, probes averaged, single round
Relative to: mean of 7-mers
Reading: higher = stronger binding
Measurement: 7-mer Z-score
Residues (chain): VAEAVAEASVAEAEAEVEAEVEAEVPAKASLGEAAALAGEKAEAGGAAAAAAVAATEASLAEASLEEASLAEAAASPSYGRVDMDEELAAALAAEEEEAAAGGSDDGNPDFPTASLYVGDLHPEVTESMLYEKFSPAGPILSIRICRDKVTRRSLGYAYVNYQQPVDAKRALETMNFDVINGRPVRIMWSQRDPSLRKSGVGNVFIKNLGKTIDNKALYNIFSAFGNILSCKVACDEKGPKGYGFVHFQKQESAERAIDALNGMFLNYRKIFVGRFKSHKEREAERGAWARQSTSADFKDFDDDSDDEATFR
AGUUGGA: 0.0913
GCAGUCC: -0.19
ACGGUCC: -0.202
GGCGAUG: 0.113
AGUAGGA: -0.0554
ACUUCAG: -0.157
UUAGAGU: -0.0645
ACUCUCU: -0.331
AGAAACC: 0.206
AGAUCCC: -0.362
CGGCCAA: -0.0446
GUUACGA: 0.0478
GUUCAUG: -0.162
AGAGCGC: -0.228
GUGUGGC: -0.0826
CCCGCCU: -0.494
AAGAGGG: 1.22
UACCCCC: -0.492
CGGUCGU: -0.345
UUUCUGC: -0.325
GCUCCCU: -0.237
GUACGCA: -0.133
CGUCAUG: -0.333
GACCGCG: -0.146

Series 4
Target: Histone acetyltransferase KAT6A, winged helix 1, GST fusion (KAT6A, Homo sapiens, UniProt Q92794, residues 1-85)
Technique: protein binding microarray
Form: double-stranded DNA, one strand shown
Matrix: in vitro
Tested at: not given
Setting: 8-mer, flanks averaged, mean of 2 arrays, mostly near background
Relative to: not given
Reading: higher = stronger binding
Measurement: E-score
Construct (chain): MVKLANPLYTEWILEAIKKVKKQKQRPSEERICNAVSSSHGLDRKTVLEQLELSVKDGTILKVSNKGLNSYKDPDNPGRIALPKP
ACGCTATC: 0.0469
AAGCTGGT: -0.18
ACGTGAAG: 0.00159
GTTCTTAA: -0.086
ATAAGATC: -0.251
ATCACCCA: -0.245
CGTCGAGC: 0.114
ATTTACCA: -0.186
GTCAGTAA: -0.0365
TCCAAAAA: -0.185
CCTCTGAA: -0.109
AAGCCCTT: -0.114
GGATAGGA: -0.0605
GACTCATA: -0.156
AACACGAA: -0.0337
TCGGATCA: 0.00942
AATGCGCG: 0.448
CAAAAAAC: -0.187
GACCTTCC: 0.0397
ACGTACTA: -0.153
GATATGAA: -0.0224
GAATGGGA: -0.238
GTCGGTCA: 0.00607

Series 5
Target: Fragile X messenger ribonucleoprotein 1, C-terminal low-complexity region (Fmr1, Mus musculus, UniProt P35922)
Technique: RNA Bind-n-Seq
Form: RNA
Matrix: in vitro
Tested at: 200 nM
Setting: whole 134-nt RNA, ends assumed
Together with: 150 mM KCl
Relative to: input library
Reading: higher = stronger binding
Measurement: log2 enrichment
All sequences stand within: GGGAGUUCUACAGUCCGACGAUC … UGGAAUUCUCGGGUGUCAAGG
ACCAUGCAGGUGGGCAUCUUUGGGAAGUGGGGCAAGGCGGGGAUAGGGAGGGGGGUAACACUUUGGGAACAGGUGGUCCCAGGUCGUUUC: 0.896
UUGGACUAUGGAUCAGGUACUGUGCUCAGCAUCAGAAAAUGGGAUGACAAUGAACAGAGUAACAGGACUAUAUUUCUGAAAAAGGAUGAA: -0.399
CACAGACAACACGCACCCACACAGACACAGAGGGAAGGGGUUGGGAUGGGGACAGGGUGCACAGCAUGGCGGGGUAGGACCCCAGCCCCU: 1.27
CAAGUCCUGUGCUACACAUCGUAUGUACCGAAUCGGAAAGGUUUUUUUGGAAAGGAAAGUAUUAUGUUACGCCGUUCGGAUCUGCACUUC: -1.1
AGUCCUGUGCUACACAUCGUAUGUACCGAAUCGGGGAAAAAGGGGAGGGGUUUGGGGAAAGUAUUAUGUUACGCCGUUCGGAUCUGCACU: 0.385
CAAGUCCUGUGCUACACAUCGUAUGUACCGAAUCGGGAAAGGGAAAAAGGGAGGGAAAGUAUUAUGUUACGCCGUUCGGAUCUGCACUUC: 0.827
ACCAUGCAGGUGGGCAUCUUUGGGAAGUGGGGCAAGGGGGGGAUAGGGAGGGGGGUAACACGUUGGGAACAGGUGGUCCCAGGUCGUUUC: 0.919
UCCUGUGCUACACAUCGUAUGUACCGAAUCGGGGAAAAAAAGGGGUGGGGUUUUUGGGGAAAGUAUUAUGUUACGCCGUUCGGAUCUGCA: 0.708
CCUGUGCUACACAUCGUAUGUACCGAAUCAAAGUGUGUGUGUGUGAAAUGUGUGUGUGAAAAAAGUAUUAUGUUACGCCGUUCGGAUCUG: -0.548
UUAAGGAAGGACACUGAGUCAUGCACAAGUCCUUGCCUUCUUGGUGCCCCUCGGAAAGCACAAGACCCCUCCUCUGCUGGGUGUGAUCAA: -0.0827
CCUCAAGUCCUGUGCUACACAUCGUAUGUACCGAAUCGGAAAAAGGAGGAGGAAAGUAUUAUGUUACGCCGUUCGGAUCUGCACUUCCAG: 0.216
UCCUGUGCUACACAUCGUAUGUACCGAAUCGGGCCCCCCGGGGCCCCCCGGCCCCCCGGGAAAGUAUUAUGUUACGCCGUUCGGAUCUGC: -0.69
CCUCAAGUCCUGUGCUACACAUCGUAUGUACCGAAUCGGUUGGGUUGGUUGGGAAAGUAUUAUGUUACGCCGUUCGGAUCUGCACUUCCA: 0.0978
UCAAGUCCUGUGCUACACAUCGUAUGUACCGAAUCGGGGAGGGGAGGGGUGGGGAAAGUAUUAUGUUACGCCGUUCGGAUCUGCACUUCC: 1.22
